# Results pooled from the literature.
# Each numbered part is a random draw from the data of one study; scales do not carry over between parts. Positions count from the first letter of the parent shown.

# Study 1
# Target: RING finger protein unkempt homolog, zinc fingers 1-6, GST-SBP tag (UNK, Homo sapiens, UniProt Q9C0B0, residues 30-357)
# Technique: RNA Bind-n-Seq
# Form: RNA
# Sample: in vitro
# Tested at: not given
# Notes: RNA with constant flanks, human and mouse sites, ends assumed
# Baseline: input RNA pool
# Direction: higher = stronger binding
# Shared flanks, not repeated: GGGAGUUCUACAGUCCGACGAUC … CAACAGAGGAUUGAGCAUCA
# Residues (chain): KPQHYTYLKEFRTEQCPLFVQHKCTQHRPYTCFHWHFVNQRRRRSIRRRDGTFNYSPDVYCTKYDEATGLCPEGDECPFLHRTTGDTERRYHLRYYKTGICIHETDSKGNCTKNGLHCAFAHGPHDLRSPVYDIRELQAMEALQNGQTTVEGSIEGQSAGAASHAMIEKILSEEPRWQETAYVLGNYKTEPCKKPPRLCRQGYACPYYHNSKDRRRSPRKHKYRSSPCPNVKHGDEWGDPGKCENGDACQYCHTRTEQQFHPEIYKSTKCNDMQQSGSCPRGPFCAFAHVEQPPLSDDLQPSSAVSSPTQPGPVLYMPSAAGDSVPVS
Strand,bound/input enrichment [ratio]
UGUUCCCAGUCACCCUCCCCCACCCCCUCUACCAAGCAGGAUUCUGAUCUUUGGUGUGUUGUGUUAAGACUCUCCCAAGUGGGUCUGGCUGCCCCUUGCCCAUUGCUCACUGGGGACUAC,0.962
ACUCUAAAAAAGAACCGAGUGGUGCUAGCCAAACAGCUGUUGUUGAGCGAAUUGUUAGAACAUCUUCUGGAGAAGGACAUCAUCACCUUGGAAAUGAGGGAGCUCAUCCAGGCCAAAGUG,0.304
AGUCCAGACCCCCCCAGGUCCAAGCCCAGACCACGAUGCGCGCUCCAGGCUCCGGGCGGCUGGCUCUGCCGCUGCUGCUCCUCGCCGUGGUCGCCUUGGCUGAAGGCGACGCCAAGGGGC,0.152
CAUAAAAACCAAACACUUCUCUAUAAUCUUUUUGACAUUUCUCAGUCUGCACAGACCCCAAUAGCAGUUAUUGGUCUUACAUGUAGAUUGGAUAUUUUGGAACUCUUAGAAAAAAGAGUG,0.88
UUUCAUCUUUUGGAGUUAGAAAAGGUCCACGAACUGUGCGAUAACUUCUGCCACCGAUACAUUAGCUGUUUGAAGGGGAAAAUGCCCAUCGACCUCGUCAUUGAUGAAAGAGACGGCAGC,0.0952
ACCAACAAAGACAAGGCUGAAUUCAUUCUGCCUAAUGGUCAAGAAGUAGAUCUCCCGAUUUCCUACUUAACUUCAGUCUCAUCUUUGAUUGUGUGGCAUCCAGCAAACCCUGCGGAGAAA,0.173
GAGAGGAUUAGGUUCCAUCCUUUACGUGUUUAAAAAAAAGCAUAAAAACAUUUUAAAAACAUAGAAAAAUUCAGCAAACCAUUUUUAAAGUAGAAGAGGGUUUUAGGUAGAAAAACAUAU,61.6
GCAGAUGAAGUAGAGUUUACUGUGGUUCCUGAUAUGCUCUCUGCUCAAAGAAAUCAUGCUAUUAGGAUUAAAAAACUUCCCAAGGGCACGGUUUCAUUUCAUUCCCAUUCAGAUCACCGU,0.249
CACAUUUUCCCCUUACUCCUCAACAAUUGAAGUGGACUUUUAUGGGGUGGGGGGUGAUUGGCAAAAGGUAAUGUGUUCCAUUUAUAAUUUUGGUCUAUGGAGUUUUCUAACUUAGGAAGC,0.341
GGAGUGUUUGGUGGACCAUACCCUUUUGGCAUUGAUCCAAUUUGGAACAUUGCUACCAAUAAACUGACGUUCUUGAACUCCUUUAAGAUGAAGAUGUCUGUUAUCCUUGGUAUCAUCCAU,0.133
UUUCCAGUGGAAUUCCUUAUCCAGGUGACUAAGUUAUCAAAAAUUCUCAUGAUUAAAAAAGAGCAUAUAAAGAAAUUAAGGGAGAUGAACACAGAAGCAGAAAAGCUGAAAUCCUAUUCC,0.255

# Study 2
# Target: CCNE1, cyclin fold, Cln2 fusion (human)
# Technique: yeast growth competition, sequencing
# Sample: yeast
# Notes: strong parent motif
# Baseline: not given
# Direction: higher = stronger binding
# Parent: SCAPER docking peptide (human); SNARRSLNFGGST
Change,normalised enrichment score
SNARRSLNFGQST [G11Q],0.893
SNAYRSLNFGGST [R4Y],0.181
SKARRSLNFGGST [N2K],0.673
SNARRSLDFGGST [N8D],1.23
SIARRSLNFGGST [N2I],0.805
SNARRSLNFPGST [G10P],0.826
SNARRSLNFEGST [G10E],1.28
SNARRILNFGGST [S6I],3.48
SNARRSINFGGST [L7I],-0.00307
MNARRSLNFGGST [S1M],1.23
SWARRSLNFGGST [N2W],0.67
SNARKSLNLGGST [R5K F9L],-0.112
SNARRSLNNGGST [F9N],-0.628
SNARFSLNFGGST [R5F],0.457
SNAQRSLNFGGST [R4Q],-0.613
SNARRSLGFGGST [N8G],0.45
SNARRSLNFGGPT [S12P],1.52

# Study 3
# Target: CEBPA, bZIP domain (human)
# Technique: DHFR protein complementation
# Sample: yeast
# Notes: single substitutions, most at no-binding floor
# Baseline: wild-type JUN-FOS pair
# Direction: higher = stronger binding
# Parent: JUN, bZIP domain (human); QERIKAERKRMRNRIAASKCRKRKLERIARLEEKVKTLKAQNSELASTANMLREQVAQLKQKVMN; partner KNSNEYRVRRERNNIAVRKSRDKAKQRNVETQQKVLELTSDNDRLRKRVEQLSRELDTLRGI
Change,binding fitness
Q55G,-1.47 natural log
E32L,-1.46 natural log
I28C,-1.37 natural log
E33Q,-1.41 natural log
K39E,-1.33 natural log
A46I,-1.31 natural log
K34L,-1.27 natural log
L52S,-1.48 natural log
A29M,-1.53 natural log
A29V,-1.51 natural log
E44Q,-1.43 natural log
N42K,-1.47 natural log
L59A,-1.45 natural log
E32N,-1.5 natural log
T37E,-1.24 natural log
R30V,-1.4 natural log
E54A,-1.44 natural log
Q55T,-1.43 natural log
L38C,-1.48 natural log
A49F,-1.44 natural log
T48M,-1.42 natural log
A29I,-1.49 natural log
L38Y,-1.44 natural log
V35P,-1.48 natural log
S47T,-1.46 natural log

# Study 4
# Target: Histone acetyltransferase KAT6A, winged helix 1, GST fusion (KAT6A, Homo sapiens, UniProt Q92794, residues 1-85)
# Technique: protein binding microarray
# Form: double-stranded DNA, one strand shown
# Sample: in vitro
# Tested at: not given
# Notes: 8-mer, flanks averaged, mean of 2 arrays, mostly near background
# Baseline: not given
# Direction: higher = stronger binding
# Construct (chain): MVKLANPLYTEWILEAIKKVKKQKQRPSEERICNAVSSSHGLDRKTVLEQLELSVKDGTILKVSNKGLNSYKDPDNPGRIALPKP
Strand,E-score
CGTACCCA,-0.0713
AATAAGAC,-0.214
CAAGCACC,-0.143
CCCGAGGC,0.248
CACTGCTG,-0.102
CTGCTGCC,0.048
AGTCGCTC,-0.0388
TTACTAAA,-0.0449
CGCTGTGC,0.256
CCCTTTAG,-0.179
AGGGACAT,-0.0454
ATATTTAC,0.0379
GATCTAAA,-0.126
AAATCTAA,-0.211
AGTGGAAC,-0.0951
ATTAGCTA,-0.2
ATATCATG,-0.12
GGAAAACC,0.0268
AGGGTGAA,-0.273
CCTTTACG,0.16
ACTAAGCT,-0.247
CACGACAG,-0.155
ACGTCGAC,-0.13
ATCTGGTA,-0.156

# Study 5
# Target: RNA binding protein fox-1 homolog 2, RRM domain, GST-SBP tag (RBFOX2, Homo sapiens, UniProt O43251-10, residues 100-194)
# Technique: RNA Bind-n-Seq
# Form: RNA
# Sample: in vitro
# Tested at: 365 nM
# Notes: natural RNA segment, single round, ends assumed
# Baseline: no-protein control
# Direction: higher = stronger binding
# Shared flanks, not repeated: GGGAGUUCUACAGUCCGACGAUC … UGGAAUUCUCGGGUGCCAA
# Target sequence (chain): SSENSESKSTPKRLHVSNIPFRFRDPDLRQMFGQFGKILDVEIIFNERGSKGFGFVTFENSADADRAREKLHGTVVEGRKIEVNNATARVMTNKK
Strand,RBNS enrichment (R)
GUCUUUAAGCAGCCGUGUCCAGGCUUCCUGAGAACACCGGCUGCAAACACGGGCAUCCCGGGGAAAGCUGGGAGUUUGGUUCCUGGCACAUUGCAAUCACUUGAUUGUGA,0.338
GCGAGCCUUCCACUCUCCCACGGUCUGGUGUCUCUAUGGAAAUAAAGUCUUAGUAUUGCAUUGGUGUAGAUUGUCUGUGAGAUAUUAGUAUGUGCUGUAUGCAGACCACA,4.02
AUCUUGCCUGGCCGAGUGUUUGUGCUAUGUGAGCAUGAGGCUUUAUUUGACUGUGGAAGAAGACACUAAGAGCCAGCAGAAGGGCCUGAGCUGCCUCAUUAGCCUGGCUU,0.854
UUCUGGAACUUGCUGUAUAGUCCAGGCUGGCCUCAAACUCAGAGAUCCACCUGCCUCUGCCCCCUGAUGCUGCCACCAUACCCAGCUGGUUUUAUCUUUUAAUGAUAACU,0.252
CGCCCUCAUCAGGCAGCCCCCAGCCCCCUGAGGCCCUGUCCAUCUUCUCCCCACCACCGCCCCGGUGUGCGUACCCAGGCGCACGUGCUGCAGCCCCCGGAGGCCCCGCU,0.695
CAGUAAUGGCCUGUGUUGGUAACAAUAUUAUCUAGUUCAAUGCCAUGCAGUAGCAUUGUAUAGCAACUAGUGCAUUUCAUACUGUAUUAAAUAUGGCACUGCUUCUAAGC,0.235
ACAGCUACCUGAGACGGGCAUCGCAGGAGUCUCUGCCACCCACUCAGGAUUGGGAAUUGUCUUUAGUGCCGGCUGUGGAGCAAAAGGCAGCUCACCCCUGGGCAGGCGGU,0.326
UUGUAAAACCAUCCCCUUCACCAGAAUGGUAUUAACUCCUGGUGCUUUGUACUACUGGUCCAGCUGCCUUGGGCUCCUUUUCUAUAUUAAUAAAGAAACGAGUAAAAAUU,0.538
CCGAGCACAGCUGGUCCUACCCCAAGUCAUGGUGUGCUGAGUGACUGACUGAGGGGCCAUUGAGAGCCGGUGGGCUCUGCCAUGGAACCCUUCCGUUGAUUAGCAAUGAC,0.343
AGAUUUCUCCACUUGCCUCAAGGCUGGGAACAAACUUCUGUUGGAAUUUUAAAUAGGAUUAUUUGCAUUUUAUAGCAUAGGCAUAAUUUUUUUAAUUUAAGAUUUUUAAG,0.663
CAGGAAGAAAUGCAAAAUCAUGAAGAUGUUAAUGUUGGUUCUAUUUUGAUUCAACAUCACAAAAAAGAAAAAUUCAGUGGUUCCAGUAAAGAUUUGAAAUUUGUUAAAAU,0.741
GGGGCGCCUGCCUCCCUGCUCCUCUGUCCUCGCACAGCGAACCUGGGCUCCUGCCCAGGACAGGCACCAGGGUCAUGGCCUGGGACCUGGACACUGGCCCCUCCACCCUC,0.462

# Study 6
# Target: ABI1, truncated, D143A, DHFR fusion (Arabidopsis thaliana)
# Technique: DHFR PCA, deep sequencing
# Sample: yeast
# Notes: methotrexate growth selection, single substitutions
# With: (+)-ABA 58 µM
# Baseline: wild-type fitted maximum
# Direction: higher = stronger binding
# Parent: PYL1, truncated, DHFR fusion (Arabidopsis thaliana); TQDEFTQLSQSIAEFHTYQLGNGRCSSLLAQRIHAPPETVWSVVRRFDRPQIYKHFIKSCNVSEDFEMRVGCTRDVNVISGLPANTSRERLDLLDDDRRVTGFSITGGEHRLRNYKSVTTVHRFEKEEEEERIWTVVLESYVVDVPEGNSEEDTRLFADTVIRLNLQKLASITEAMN
Change,relative binding score [%]
F5I,82.4
T119R,5.98
A35P,-66.6
V40T,15.4
I133F,82.6
D96P,27.7
P37Y,7.4
C25A,87.7
G71E,18.9
L8Q,69.2
N22I,88.1
S63N,86.7
G108T,0.734
G107H,61.6
C25S,59.6
Y53S,10.9
Q2M,86.2
N85C,87
V78F,62.2
D65I,51.3

# For quick reference, copied from above (study 5):
Strand,RBNS enrichment (R)
GGGGCGCCUGCCUCCCUGCUCCUCUGUCCUCGCACAGCGAACCUGGGCUCCUGCCCAGGACAGGCACCAGGGUCAUGGCCUGGGACCUGGACACUGGCCCCUCCACCCUC,0.462
GUCUUUAAGCAGCCGUGUCCAGGCUUCCUGAGAACACCGGCUGCAAACACGGGCAUCCCGGGGAAAGCUGGGAGUUUGGUUCCUGGCACAUUGCAAUCACUUGAUUGUGA,0.338
GCGAGCCUUCCACUCUCCCACGGUCUGGUGUCUCUAUGGAAAUAAAGUCUUAGUAUUGCAUUGGUGUAGAUUGUCUGUGAGAUAUUAGUAUGUGCUGUAUGCAGACCACA,4.02
AUCUUGCCUGGCCGAGUGUUUGUGCUAUGUGAGCAUGAGGCUUUAUUUGACUGUGGAAGAAGACACUAAGAGCCAGCAGAAGGGCCUGAGCUGCCUCAUUAGCCUGGCUU,0.854
AGAUUUCUCCACUUGCCUCAAGGCUGGGAACAAACUUCUGUUGGAAUUUUAAAUAGGAUUAUUUGCAUUUUAUAGCAUAGGCAUAAUUUUUUUAAUUUAAGAUUUUUAAG,0.663
UUCUGGAACUUGCUGUAUAGUCCAGGCUGGCCUCAAACUCAGAGAUCCACCUGCCUCUGCCCCCUGAUGCUGCCACCAUACCCAGCUGGUUUUAUCUUUUAAUGAUAACU,0.252
